Published values of several laboratories.
Parts stem from different laboratories: compare values within a part only.
Chain of UniProt P21802 (whole entry, looked up): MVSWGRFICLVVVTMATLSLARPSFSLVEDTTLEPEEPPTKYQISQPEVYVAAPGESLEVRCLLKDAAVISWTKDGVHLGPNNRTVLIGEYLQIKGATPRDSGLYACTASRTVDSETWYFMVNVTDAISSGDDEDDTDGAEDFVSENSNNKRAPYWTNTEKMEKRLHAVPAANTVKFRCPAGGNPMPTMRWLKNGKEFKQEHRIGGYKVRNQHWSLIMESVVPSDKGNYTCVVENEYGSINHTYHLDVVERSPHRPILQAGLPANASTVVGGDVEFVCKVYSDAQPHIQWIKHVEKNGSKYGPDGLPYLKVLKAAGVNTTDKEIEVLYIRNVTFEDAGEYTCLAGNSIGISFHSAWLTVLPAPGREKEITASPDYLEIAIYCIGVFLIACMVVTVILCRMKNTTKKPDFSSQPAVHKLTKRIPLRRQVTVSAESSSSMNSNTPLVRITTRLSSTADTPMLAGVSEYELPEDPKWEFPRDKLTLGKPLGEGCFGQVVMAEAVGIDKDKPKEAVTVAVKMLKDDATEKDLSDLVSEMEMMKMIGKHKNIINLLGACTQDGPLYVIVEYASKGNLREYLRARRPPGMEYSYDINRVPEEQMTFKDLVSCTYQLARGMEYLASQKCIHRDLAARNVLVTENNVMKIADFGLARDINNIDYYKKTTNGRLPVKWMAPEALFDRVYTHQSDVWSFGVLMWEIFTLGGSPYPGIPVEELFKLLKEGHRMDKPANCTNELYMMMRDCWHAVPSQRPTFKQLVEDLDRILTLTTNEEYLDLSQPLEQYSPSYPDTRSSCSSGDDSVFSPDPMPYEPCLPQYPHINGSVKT
Chain of UniProt Q7L7X3 (whole entry, looked up): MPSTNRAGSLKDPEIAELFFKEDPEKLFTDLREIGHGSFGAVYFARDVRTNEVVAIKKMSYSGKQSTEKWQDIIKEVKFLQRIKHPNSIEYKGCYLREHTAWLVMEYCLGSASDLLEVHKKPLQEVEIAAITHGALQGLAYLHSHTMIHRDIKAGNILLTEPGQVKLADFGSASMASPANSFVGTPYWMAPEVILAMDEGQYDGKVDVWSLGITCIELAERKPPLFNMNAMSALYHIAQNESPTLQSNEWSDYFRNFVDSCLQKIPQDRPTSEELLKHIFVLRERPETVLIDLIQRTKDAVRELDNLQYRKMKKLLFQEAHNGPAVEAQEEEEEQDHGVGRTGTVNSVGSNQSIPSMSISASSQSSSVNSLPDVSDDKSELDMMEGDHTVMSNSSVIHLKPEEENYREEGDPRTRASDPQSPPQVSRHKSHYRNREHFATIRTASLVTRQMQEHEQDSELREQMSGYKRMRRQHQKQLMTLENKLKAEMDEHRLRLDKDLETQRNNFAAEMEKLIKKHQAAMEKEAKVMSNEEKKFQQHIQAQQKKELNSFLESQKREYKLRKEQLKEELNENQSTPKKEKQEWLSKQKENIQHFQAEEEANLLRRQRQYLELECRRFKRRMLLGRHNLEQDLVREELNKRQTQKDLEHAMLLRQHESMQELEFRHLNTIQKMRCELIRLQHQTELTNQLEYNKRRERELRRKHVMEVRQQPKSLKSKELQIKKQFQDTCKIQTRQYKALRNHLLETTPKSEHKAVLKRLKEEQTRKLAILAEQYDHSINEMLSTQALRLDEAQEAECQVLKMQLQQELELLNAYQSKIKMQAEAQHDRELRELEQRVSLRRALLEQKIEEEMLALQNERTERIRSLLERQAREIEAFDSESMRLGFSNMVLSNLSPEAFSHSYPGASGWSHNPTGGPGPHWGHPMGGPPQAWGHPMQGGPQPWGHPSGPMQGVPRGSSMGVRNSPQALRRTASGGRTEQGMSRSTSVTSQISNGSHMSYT
Chain of UniProt Q04771 (whole entry, looked up): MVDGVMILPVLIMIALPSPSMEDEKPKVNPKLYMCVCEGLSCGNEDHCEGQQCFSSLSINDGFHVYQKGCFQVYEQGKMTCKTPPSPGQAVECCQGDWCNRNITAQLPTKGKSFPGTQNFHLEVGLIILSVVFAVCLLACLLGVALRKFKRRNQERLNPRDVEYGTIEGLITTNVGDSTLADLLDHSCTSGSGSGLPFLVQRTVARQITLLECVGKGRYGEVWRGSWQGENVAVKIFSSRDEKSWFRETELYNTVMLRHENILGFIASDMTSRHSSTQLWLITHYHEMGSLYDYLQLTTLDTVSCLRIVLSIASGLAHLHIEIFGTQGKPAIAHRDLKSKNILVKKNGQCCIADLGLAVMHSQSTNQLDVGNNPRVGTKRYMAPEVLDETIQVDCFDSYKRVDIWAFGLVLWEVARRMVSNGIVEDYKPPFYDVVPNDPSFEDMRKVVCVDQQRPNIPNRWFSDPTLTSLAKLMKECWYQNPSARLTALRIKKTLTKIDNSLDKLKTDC
Chain of UniProt Q96BR1 (whole entry, looked up): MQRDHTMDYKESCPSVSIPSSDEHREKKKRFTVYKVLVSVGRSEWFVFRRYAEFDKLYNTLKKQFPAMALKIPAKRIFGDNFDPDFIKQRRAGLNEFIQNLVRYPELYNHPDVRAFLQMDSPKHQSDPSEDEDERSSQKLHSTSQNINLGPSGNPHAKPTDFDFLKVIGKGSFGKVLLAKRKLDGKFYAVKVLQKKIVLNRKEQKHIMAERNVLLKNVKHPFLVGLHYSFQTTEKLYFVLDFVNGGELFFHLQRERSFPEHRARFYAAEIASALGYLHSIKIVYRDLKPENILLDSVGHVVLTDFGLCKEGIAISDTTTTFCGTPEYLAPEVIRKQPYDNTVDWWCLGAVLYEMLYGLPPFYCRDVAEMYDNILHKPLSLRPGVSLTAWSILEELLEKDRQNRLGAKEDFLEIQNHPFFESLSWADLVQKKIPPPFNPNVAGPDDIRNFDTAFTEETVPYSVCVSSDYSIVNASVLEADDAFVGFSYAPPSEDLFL
Chain of UniProt Q99986 (whole entry, looked up): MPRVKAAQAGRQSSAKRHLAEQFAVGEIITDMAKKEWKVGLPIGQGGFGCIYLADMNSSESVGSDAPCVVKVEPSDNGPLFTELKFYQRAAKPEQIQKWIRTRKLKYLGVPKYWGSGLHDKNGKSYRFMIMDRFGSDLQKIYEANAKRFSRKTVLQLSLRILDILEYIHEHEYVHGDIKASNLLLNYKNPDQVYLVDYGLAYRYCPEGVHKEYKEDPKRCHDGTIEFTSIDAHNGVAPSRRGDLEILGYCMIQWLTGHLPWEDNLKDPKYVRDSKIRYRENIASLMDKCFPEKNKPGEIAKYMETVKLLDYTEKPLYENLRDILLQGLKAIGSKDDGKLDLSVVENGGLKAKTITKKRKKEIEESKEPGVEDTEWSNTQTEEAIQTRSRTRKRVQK
Chain of UniProt P53350 (whole entry, looked up): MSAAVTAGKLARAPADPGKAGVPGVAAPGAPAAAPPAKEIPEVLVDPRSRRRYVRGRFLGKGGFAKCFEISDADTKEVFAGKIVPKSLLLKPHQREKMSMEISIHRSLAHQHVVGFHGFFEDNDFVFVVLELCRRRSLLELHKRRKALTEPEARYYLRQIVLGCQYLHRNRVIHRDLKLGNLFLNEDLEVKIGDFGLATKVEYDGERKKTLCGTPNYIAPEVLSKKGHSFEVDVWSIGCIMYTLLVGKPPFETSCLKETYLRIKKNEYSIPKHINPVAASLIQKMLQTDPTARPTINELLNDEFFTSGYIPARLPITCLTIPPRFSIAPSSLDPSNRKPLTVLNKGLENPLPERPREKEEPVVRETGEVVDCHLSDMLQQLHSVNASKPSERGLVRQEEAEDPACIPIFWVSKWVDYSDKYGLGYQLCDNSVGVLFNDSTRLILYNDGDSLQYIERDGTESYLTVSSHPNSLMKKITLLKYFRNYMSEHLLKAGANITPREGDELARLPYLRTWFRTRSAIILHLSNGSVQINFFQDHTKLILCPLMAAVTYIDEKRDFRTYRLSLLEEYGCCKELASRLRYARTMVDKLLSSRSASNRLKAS
Chain of UniProt O43353 (whole entry, looked up): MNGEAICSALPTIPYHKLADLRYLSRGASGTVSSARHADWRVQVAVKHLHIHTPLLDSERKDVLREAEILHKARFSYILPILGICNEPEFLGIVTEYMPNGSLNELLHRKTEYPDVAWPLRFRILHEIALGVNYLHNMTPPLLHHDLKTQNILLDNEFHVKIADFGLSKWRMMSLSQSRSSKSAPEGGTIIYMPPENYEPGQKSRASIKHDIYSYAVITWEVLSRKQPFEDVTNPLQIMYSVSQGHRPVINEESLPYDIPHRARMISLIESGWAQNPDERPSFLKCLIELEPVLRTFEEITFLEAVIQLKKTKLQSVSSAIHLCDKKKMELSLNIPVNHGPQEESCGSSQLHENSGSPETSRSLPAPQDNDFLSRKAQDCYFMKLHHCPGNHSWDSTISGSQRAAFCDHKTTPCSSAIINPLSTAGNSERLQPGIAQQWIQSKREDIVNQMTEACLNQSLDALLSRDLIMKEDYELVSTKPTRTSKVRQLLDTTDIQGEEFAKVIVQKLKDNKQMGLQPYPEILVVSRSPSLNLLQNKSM
Chain of UniProt P16257 (whole entry, looked up): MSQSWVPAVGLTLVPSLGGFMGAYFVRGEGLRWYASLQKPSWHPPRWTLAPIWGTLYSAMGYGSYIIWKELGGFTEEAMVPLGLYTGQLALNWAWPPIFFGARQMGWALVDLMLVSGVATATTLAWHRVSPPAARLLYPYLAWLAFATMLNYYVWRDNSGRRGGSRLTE

Study 1
Target: Bromodomain-containing protein 4, BD1 (BRD4, Homo sapiens, UniProt O60885)
Read-out: acetyl-histone H4 peptide binding
Method: AlphaScreen displacement
Concentration: 50 µM
| Structure (SMILES) | inhibition |
| --- | --- |
| NC(=O)CSc1ccc2nnc(-c3cccc(F)c3)n2n1 | 12.2% |
| Nc1nc(SCc2c(Cl)cccc2Cl)c2nc[nH]c2n1 | 47.9% |
| O=CNc1cccc2c1sc1nc[nH]c(=O)c12 | 10.6% |
| Cc1ccnc(NC(=O)c2n[nH]c3ccccc23)c1 | 12.8% |
| CCOc1ccc(NC(=S)Nc2ccc3nc[nH]c(=O)c3c2)cc1 | 26.9% |
| COc1ccc(-c2[nH]c3ncccc3c2CN2CCN(S(=O)(=O)N(C)C)CC2)cc1 | 5.25% |
| Cc1nc(Nc2n[nH]c3c2CN(C(=O)N[C@H](CN(C)C)c2ccccc2)C3(C)C)c2sccc2n1 | 13.2% |
| Oc1cc(O)cc(/C=C/c2ccc(O)c(O)c2)c1 | 38.2% |
| COc1ccc(CNC(=O)c2n[nH]c3ccccc23)cn1 | 5.9% |
| CC(=O)Cc1cc(-c2cc(CC(C)=O)[nH]n2)n[nH]1 | 12.2% |
| O=C1Nc2ccc3ncsc3c2C1=CNc1ccc(S(=O)(=O)Nc2ccccn2)cc1 | 29.1% |
| O=C(Nc1cccc(Nc2ncc(Br)c(NCCc3cnc[nH]3)n2)c1)N1CCCC1 | 30.9% |
| COc1ccccc1-c1cnc2[nH]c(=O)n(C3CCCC3)c2n1 | 12.2% |

Study 2
Target: Calcium/calmodulin-dependent protein kinase type II subunit alpha (CAMK2A, Homo sapiens, UniProt Q9UQM7)
Chain of UniProt Q9UQM7 (whole entry, looked up): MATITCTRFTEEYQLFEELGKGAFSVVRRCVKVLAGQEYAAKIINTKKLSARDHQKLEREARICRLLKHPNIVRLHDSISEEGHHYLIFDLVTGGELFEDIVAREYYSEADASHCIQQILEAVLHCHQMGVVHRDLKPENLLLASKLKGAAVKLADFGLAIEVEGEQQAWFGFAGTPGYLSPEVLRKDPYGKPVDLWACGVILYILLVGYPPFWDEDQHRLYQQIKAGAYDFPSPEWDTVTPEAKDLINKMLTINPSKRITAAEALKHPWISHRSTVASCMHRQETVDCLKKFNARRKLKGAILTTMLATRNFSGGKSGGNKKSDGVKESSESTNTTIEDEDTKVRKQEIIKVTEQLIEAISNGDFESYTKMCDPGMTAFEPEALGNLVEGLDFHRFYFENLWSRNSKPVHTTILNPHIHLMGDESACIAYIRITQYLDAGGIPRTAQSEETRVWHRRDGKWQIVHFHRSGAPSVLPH
Read-out: enzyme activity
Action: inhibitor
Concentration: 10 µM
| SMILES | inhibition [%] |
| --- | --- |
| OCCN1CCN(CC/C=C2/c3ccccc3Sc3ccc(Cl)cc32)CC1 | -3 |
| CNC(=O)c1ccc(N2C(=S)N(c3cnc(C#N)c(C(F)(F)F)c3)C(=O)C23CCC3)cc1F | -3 |
| COc1c(CC=C(C)C)c(O)cc2oc(=O)c3c4ccc(O)cc4oc3c12 | -15 |
| C=C(CCC(C(=O)O)[C@H]1[C@H](O)C[C@@]2(C)C3=CC[C@H]4C(C)(C)[C@@H](OC(C)=O)CC[C@]4(C)C3=CC[C@]12C)C(C)C (some centres unmarked) | 13 |
| O[C@H]1[C@H]2c3cc4c(cc3CN3CC[C@H](C[C@@H]1O)[C@H]23)OCO4 | -3 |
| COc1ccc(C(C)=O)c(O[C@@H]2O[C@H](CO[C@@H]3OC[C@H](O)[C@H](O)[C@H]3O)[C@@H](O)[C@H](O)[C@H]2O)c1 | 6 |
| C[C@@H]1O[C@@H](O[C@@H]2C(=O)c3c(O)cc(O)cc3O[C@H]2c2cc(O)cc(O)c2)[C@H](O)[C@H](O)[C@H]1O | -12 |
| CN(C)[C@@H]1C(O)=C(C(N)=O)C(=O)[C@@]2(O)C(O)=C3C(=O)c4c(O)ccc(Cl)c4[C@@H](O)[C@H]3C[C@@H]12 | 29 |
| COc1cc(N2CCC(N3CCN(C)CC3)CC2)ccc1Nc1ncc(Cl)c(Nc2ccccc2P(C)(C)=O)n1 | 63 |
| CC1(C)[C@@H](O)CC[C@]2(C)[C@H]3C(=O)C=C4[C@@H]5C[C@@](C)(C(=O)O)CC[C@]5(C)CC[C@@]4(C)[C@]3(C)CC[C@@H]12 | 28 |
| Cn1nnc(-c2ccc(-c3ccc(N4C[C@H](CO)OC4=O)cc3F)cn2)n1 | -17 |
| Cc1cc(C)cc(OCC2CNC(=O)O2)c1 (centres unmarked) | -15 |
| CO[C@@H]1[C@@H](OC)[C@H](C)[C@@](O)(CC(=O)O)O[C@H]1[C@H](C)[C@H]1O[C@@]2(CC[C@@](C)([C@H]3CC[C@@](C)([C@@H]4O[C@@H]([C@H]5O[C@](C)(O)[C@H](C)C[C@@H]5C)C[C@@H]4O[C@@H]4C[C@H](OC)[C@@H](OC)[C@H](C)O4)O3)O2)C[C@H](O)[C@H]1C | -11 |
| C[C@@H]1CC[C@]2(C(=O)O[C@@H]3O[C@H](CO)[C@@H](O)[C@H](O)[C@H]3O)CC[C@]3(C)C(=CC[C@@H]4[C@@]5(C)C[C@@H](O)[C@H](O)C(C)(C)[C@@H]5CC[C@]43C)[C@@H]2[C@]1(C)O | -1 |
| CC[C@@H](N)C(=O)O | 24 |
| O=C(O)CCSC[C@H]1O[C@@H]2O[C@H]3[C@H](O)[C@@H](O)[C@@H](O[C@H]4[C@H](O)[C@@H](O)[C@@H](O[C@H]5[C@H](O)[C@@H](O)[C@@H](O[C@H]6[C@H](O)[C@@H](O)[C@@H](O[C@H]7[C@H](O)[C@@H](O)[C@@H](O[C@H]8[C@H](O)[C@@H](O)[C@@H](O[C@H]9[C@H](O)[C@@H](O)[C@@H](O[C@H]1[C@H](O)[C@H]2O)O[C@@H]9CSCCC(=O)O)O[C@@H]8CSCCC(=O)O)O[C@@H]7CSCCC(=O)O)O[C@@H]6CSCCC(=O)O)O[C@@H]5CSCCC(=O)O)O[C@@H]4CSCCC(=O)O)O[C@@H]3CSCCC(=O)O | -6 |

Study 3
Compound: c1ccc(-c2n[nH]c3c2oc2ccccc23)cc1
Read-out: enzyme activity
Action: inhibitor
Concentration: 0.5 µM
Baseline: control
| target | remaining activity |
| --- | --- |
| MAP3K9 (Homo sapiens, UniProt P80192) | 97.5% |
| VRK1 (Homo sapiens, UniProt Q99986) | 83.1% |
| RIPK2 (Homo sapiens, UniProt O43353) | 78.8% |
| MAP4K5 (Homo sapiens, UniProt Q9Y4K4) | 36.6% |
| SGK3 (Homo sapiens, UniProt Q96BR1) | 111% |
| PLK1 (Homo sapiens, UniProt P53350) | 106% |
| PRKD3 (Homo sapiens, UniProt O94806) | 99.6% |
| ULK1 (Homo sapiens, UniProt O75385) | 124% |
| NTRK2 (Homo sapiens, UniProt Q16620) | 64% |
| INSRR (Homo sapiens, UniProt P14616) | 104% |
| HCK (Homo sapiens, UniProt P08631) | 111% |
| DYRK2 (Homo sapiens, UniProt Q92630) | 95.4% |
| TAOK1 (Homo sapiens, UniProt Q7L7X3) | 121% |
| RAF1 (Homo sapiens, UniProt P04049) | 94.9% |
| FGFR2 (Homo sapiens, UniProt P21802) | 97% |
| ACVR1 (Homo sapiens, UniProt Q04771) | 99.4% |
| PHKG2 (Homo sapiens, UniProt P15735) | 112% |

Other studies, line by line
| Structure (SMILES) | target | read-out | method | concentration | endpoint | value |
| --- | --- | --- | --- | --- | --- | --- |
| C[C@H](c1cccc(C#N)c1)n1cc(Cl)cc(C(N)=O)c1=N | Translocator protein (Tspo, Rattus norvegicus, UniProt P16257) | binding | radioligand binding | 10 µM | inhibition | -7.87% |

Excerpt of the above (study 2):
| SMILES | inhibition [%] |
| --- | --- |
| C[C@@H]1CC[C@]2(C(=O)O[C@@H]3O[C@H](CO)[C@@H](O)[C@H](O)[C@H]3O)CC[C@]3(C)C(=CC[C@@H]4[C@@]5(C)C[C@@H](O)[C@H](O)C(C)(C)[C@@H]5CC[C@]43C)[C@@H]2[C@]1(C)O | -1 |
| CC[C@@H](N)C(=O)O | 24 |
| O=C(O)CCSC[C@H]1O[C@@H]2O[C@H]3[C@H](O)[C@@H](O)[C@@H](O[C@H]4[C@H](O)[C@@H](O)[C@@H](O[C@H]5[C@H](O)[C@@H](O)[C@@H](O[C@H]6[C@H](O)[C@@H](O)[C@@H](O[C@H]7[C@H](O)[C@@H](O)[C@@H](O[C@H]8[C@H](O)[C@@H](O)[C@@H](O[C@H]9[C@H](O)[C@@H](O)[C@@H](O[C@H]1[C@H](O)[C@H]2O)O[C@@H]9CSCCC(=O)O)O[C@@H]8CSCCC(=O)O)O[C@@H]7CSCCC(=O)O)O[C@@H]6CSCCC(=O)O)O[C@@H]5CSCCC(=O)O)O[C@@H]4CSCCC(=O)O)O[C@@H]3CSCCC(=O)O | -6 |
